Results collected from several papers.
± marks the error that the study gave. Converted amounts (≈) assume the structure as drawn.
GBA2: Beta-glucosidase (GBA2, Homo sapiens, UniProt Q9HCG7)
Sequence of UniProt Q9HCG7 (whole entry, looked up): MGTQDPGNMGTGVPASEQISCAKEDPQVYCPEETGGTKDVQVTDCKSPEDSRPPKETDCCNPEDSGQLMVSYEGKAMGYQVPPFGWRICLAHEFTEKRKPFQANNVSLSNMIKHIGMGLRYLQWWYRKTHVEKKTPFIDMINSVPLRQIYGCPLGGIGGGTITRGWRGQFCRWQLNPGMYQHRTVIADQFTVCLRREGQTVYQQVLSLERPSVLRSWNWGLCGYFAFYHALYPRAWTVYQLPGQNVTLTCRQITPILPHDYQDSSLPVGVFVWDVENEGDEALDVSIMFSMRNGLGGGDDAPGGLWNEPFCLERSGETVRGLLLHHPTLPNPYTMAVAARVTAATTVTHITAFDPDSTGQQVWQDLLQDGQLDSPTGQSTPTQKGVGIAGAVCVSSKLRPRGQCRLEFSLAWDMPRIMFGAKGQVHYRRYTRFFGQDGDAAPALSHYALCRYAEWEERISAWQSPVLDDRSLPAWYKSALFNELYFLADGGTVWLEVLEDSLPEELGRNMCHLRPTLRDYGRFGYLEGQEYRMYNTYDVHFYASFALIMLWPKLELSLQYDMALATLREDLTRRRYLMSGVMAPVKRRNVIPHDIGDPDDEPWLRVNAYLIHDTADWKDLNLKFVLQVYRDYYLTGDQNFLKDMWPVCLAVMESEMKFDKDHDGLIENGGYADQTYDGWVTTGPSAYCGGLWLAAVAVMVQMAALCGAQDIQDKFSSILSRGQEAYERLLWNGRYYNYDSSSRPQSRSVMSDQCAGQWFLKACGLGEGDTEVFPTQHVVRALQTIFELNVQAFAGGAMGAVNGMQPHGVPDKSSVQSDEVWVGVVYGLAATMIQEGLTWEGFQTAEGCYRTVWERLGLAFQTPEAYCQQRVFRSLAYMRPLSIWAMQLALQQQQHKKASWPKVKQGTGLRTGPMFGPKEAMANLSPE

| Structure (SMILES) | target or system | assay | system | conditions | scale | measurement | result |
| --- | --- | --- | --- | --- | --- | --- | --- |
| Cc1ncsc1-c1ccc(C(C)NC(=O)C2CC(O)CN2C(=O)C(NC(=O)CCCCCCCCCCN2CCCC(Nc3ncc(Cl)c(Nc4ccccc4S(=O)(=O)C(C)C)n3)C2)C(C)(C)C)cc1 (stereo not shown) | 22Rv1 | RNA-seq, measured: USP51 mRNA |  | concentration not given | relative to: DMSO | log2 fold change | -7 |
| CCN(C(=O)c1cc(F)ccc1Oc1nncnc1N1CCC2(C1)CN([C@H](CCCN(C)CCOC)C(C)C)C2)C(C)C | EFO-21 | cell growth or viability |  | 7 days |  | GI50 | > 10000 nM |
| C=CC(=O)N1[C@H](c2ccc3c(c2)OCO3)c2[nH]c3ccccc3c2C[C@@H]1C(=O)N1CCN(C)CC1 | human cyclin E1 N112C-3xFLAG:CDK2 | co-IP with TMT proteomics, measured: CKS1B |  | concentration not given, P61024 | relative to: wild type DMSO | relative co-enrichment | 116% |
| OC[C@H]1[C@@H](O)[C@H](O)[C@@H](O)CN1CCCCCOCCC12CC3CC(CC(C3)C1)C2 | GBA2 | inhibitor, 4MU-β-D-glucopyranoside | HEK293T homogenates overexpressing GBA2 |  | relative to: GBA1 IC50 over GBA2 IC50 | selectivity ratio | 333 |
| CNS(=O)(=O)Nc1nccc(Cc2c(C)c3ccc(Oc4ncccc4F)cc3oc2=O)c1F | CAL-51 | cell viability |  | 7 days |  | IC50 | > 1000 nM |
| C[n+]1ccc(/C=N/NC(=O)c2ccc3ccc(C(=O)N/N=C/c4cc[n+](C)cc4)nc3n2)cc1 | myc22 MYC G4-DNA parallel | FRET melting |  | 1 µM, K1 buffer, DNA 0.2 µM, with: ds26 10 µM |  | ΔTm | 5.8 ± 0.5 °C |
| c1ccc(-c2n[nH]cc2-c2ccnc3ccccc23)nc1 | orf19.4575 Candida albicans | kinase binding, MIB/MS competition | Candida albicans lysate | 1 µM | relative to: DMSO | log2 fold change | 0.04 |
| CC[n+]1cccc2cc(/C=N/NC(=O)c3cncc(C(=O)N/N=C/c4ccc5c(ccc[n+]5CC)c4)n3)ccc21 | myc22 MYC G4-DNA parallel | FRET melting |  | 1 µM, K1 buffer, DNA 0.2 µM, with: ds26 10 µM |  | ΔTm | 19.3 ± 0.6 °C |
| CN1CCCNC(=O)c2cccc(c2)C(=O)NCCCN(C)CCCNc2cccc3c2C(=O)c2cccc(c2C3=O)NCCC1 | SAS | RNA-Seq, measured: TIMM10B mRNA |  | 1 µM, 6 h | relative to: untreated cells | log2 fold change | -2.6 |
| O=C1NC2(CC2)COc2ncc(F)cc2[C@H]2COCCN2c2ccn3ncc1c3n2 | Salmonella typhimurium | Ames test | TA1535 | 150 µg/plate, 48 h, with: without S9 |  | revertant colonies | 10 ± 3 revertants/plate |
| Cn1ncc2cc(-c3cncc(Cl)c3N3CCC4(CCNC4=O)CC3)ccc21 | LS174T | gene expression, microarray, measured: ZFP14 mRNA |  | concentration not given, 4 h | relative to: untreated cells | log2 fold change | 1.88 |
| C[n+]1cc(/C=N/NC(=O)C(=O)N/N=C/c2cc3ccccc3[n+](C)c2)cc2ccccc21 | myc22 MYC G4-DNA parallel | FRET melting |  | 1 µM, K1 buffer, DNA 0.2 µM, with: ds26 10 µM |  | ΔTm | 4.8 ± 0.6 °C |
| Nc1ncc(-c2cc(-c3cnn(CC(F)(F)F)c3)ncc2F)nc1C(=O)NC1CNCC(F)C1 (stereo not shown) | VRK2 | KINOMEscan |  | 1 µM | relative to: DMSO control | remaining binding | 53% |
| O=C(N/N=C/c1ccc(C[n+]2ccccc2)cc1)c1cccc(C(=O)N/N=C/c2ccc(C[n+]3ccccc3)cc2)n1 | myc22 MYC G4-DNA parallel | FRET melting |  | 1 µM, K1 buffer, DNA 0.2 µM |  | ΔTm | 8.6 ± 0.4 °C |
| COc1ccc(C(=O)CCc2cc(C(CCc3ccc(O)cc3OC)c3ccc(O)cc3)c(O)cc2OC)cc1 (racemic) |  |  | human blood | 10 µM, with: A23187 |  | 20-OH-LTB4 level | 579 ± 264 pg/mL |
| CN1CCC[C@]1(C)/C=C/S(=O)(=O)NC(=O)Nc1c2c(cc3c1CCC3)CCC2 |  |  | human, whole blood ex vivo | 250 mg single dose, 12 h, single ascending dose, with: LPS and ATP |  | IL-1β inhibition | 99% |
| O=C(N/N=C/c1cc[n+](Cc2ccccc2)c2ccccc12)c1cccc(C(=O)N/N=C/c2cc[n+](Cc3ccccc3)c3ccccc23)c1 | myc22 MYC G4-DNA parallel | FRET melting |  | 1 µM, K1 buffer, DNA 0.2 µM |  | ΔTm | 8.1 ± 0.2 °C |
| CCN(CC)CC(=O)Nc1cccc(-n2cc(-c3ccc4ccc(-c5cn(-c6cccc(NC(=O)CN(CC)CC)c6)nn5)cc4c3)nn2)c1 | RCC4 | PCR angiogenesis array, measured: NRP1 |  | 5 x IC50, 6 h, normoxia | relative to: untreated | fold regulation | -1.43 |
| CC(C)c1ccc(N(C)c2ccc3c(c2)OCC[C@H]3CNc2cnccc2C(=O)O)cc1 | NCI-H1793 | cell growth or viability, ATP luminescence |  | 7 days |  | IC50 | 15.3 nM |
| C[n+]1ccc(/C=N/NC(=O)N/N=C/c2cc[n+](C)cc2)cc1 | myc22 MYC G4-DNA parallel | FRET melting |  | 1 µM, K1 buffer, DNA 0.2 µM, with: ds26 10 µM |  | ΔTm | 3.1 ± 0.6 °C |
| C=C(NC(=O)c1csc(-c2nc3c(cc2O)-c2nc(cs2)C(=O)NC(C(C)O)C(=O)NC(=C(C)OC)c2nc(cs2)C(=O)NC2c4nc(cs4)C(=O)NC(COC(=O)c4c5c6c(cccc6n4O)COC(=O)C(OC4CC(C)(O)C(N(C)C)C(C)O4)C2OC5)c2nc-3cs2)n1)C(N)=O (stereo not shown) | Streptococcus pneumoniae |  | -4, immunocompromised mice, lung infection | 32 mg/kg/day, twice daily, 24 h post-dose |  | lung bacterial load | 4.16 log CFU/g |
| O=C(CCCc1cn(C[C@H]2O[C@@H]3O[C@H]4[C@H](O)[C@@H](O)[C@@H](O[C@H]5[C@H](O)[C@@H](O)[C@@H](O[C@H]6[C@H](O)[C@@H](O)[C@@H](O[C@H]7[C@H](O)[C@@H](O)[C@@H](O[C@H]8[C@H](O)[C@@H](O)[C@@H](O[C@H]9[C@H](O)[C@@H](O)[C@@H](O[C@H]2[C@H](O)[C@H]3O)O[C@@H]9CO)O[C@@H]8CO)O[C@@H]7CO)O[C@@H]6CO)O[C@@H]5CO)O[C@@H]4CO)nn1)N[C@H]1CCOC1=O |  | NMR | water | 20 °C |  | solubility | 5.2 mM (≈ 7050 µg/mL) |
| COc1cc(O)ccc1CCC(c1ccc(O)cc1)c1cc2c(c(C)c1O)OC(c1ccc(O)cc1)CC2 (mixture of isomers) |  | measured: PGF2α | human whole blood | 30 µM, with: Escherichia coli |  | amount | 739 ± 363 pg/mL blood |
| COC1CN([C@H]2CC[C@H]([C@@]3(C)Oc4c(Cl)cc(C(=O)NCc5c(SC)cc(C)[nH]c5=O)c(C)c4O3)CC2)C1 |  | RNA-seq, measured: PPP1R9A | human, whole blood | dose not given, 24 h | relative to: pretreatment baseline | log2 fold change | 4.35 |
| O=C(N/N=C/c1cc[n+](Cc2ccccc2)c2ccccc12)c1cccc(C(=O)N/N=C/c2cc[n+](Cc3ccccc3)c3ccccc23)n1 | myc22 MYC G4-DNA parallel | FRET melting |  | 1 µM, K1 buffer, DNA 0.2 µM, with: ds26 10 µM |  | ΔTm | 17.8 ± 2.5 °C |
| OC[C@H]1[C@@H](O)[C@H](O)[C@@H](O)CN1CCCCCOCc1ccc2ccccc2c1 | GBA2 | inhibitor, 4MU-β-D-glucopyranoside | HEK293T homogenates overexpressing GBA2 |  | relative to: GBA1 IC50 over GBA2 IC50 | selectivity ratio | 50000 |
| O=C(N/N=C/c1ccc(C[n+]2ccccc2)cc1)N/N=C/c1ccc(C[n+]2ccccc2)cc1 | myc22 MYC G4-DNA parallel | FRET melting |  | 1 µM, K1 buffer, DNA 0.2 µM, with: ds26 10 µM |  | ΔTm | 4.3 ± 0.4 °C |
| C=CC(=O)Nc1cccc(Cn2ncc3cnc(Nc4cnn(CCOC)c4)nc32)c1 | HPK1 human | binding, KINOMEscan |  | 100 nM | lower = stronger binding | percent of control | 54% |

Repeated from above:
| Structure (SMILES) | target or system | assay | system | conditions | scale | measurement | result |
| --- | --- | --- | --- | --- | --- | --- | --- |
| C[n+]1cc(/C=N/NC(=O)C(=O)N/N=C/c2cc3ccccc3[n+](C)c2)cc2ccccc21 | myc22 MYC G4-DNA parallel | FRET melting |  | 1 µM, K1 buffer, DNA 0.2 µM, with: ds26 10 µM |  | ΔTm | 4.8 ± 0.6 °C |
| c1ccc(-c2n[nH]cc2-c2ccnc3ccccc23)nc1 | orf19.4575 Candida albicans | kinase binding, MIB/MS competition | Candida albicans lysate | 1 µM | relative to: DMSO | log2 fold change | 0.04 |
